# Published values collected from several papers.
# Compare with care: the assays were run in different laboratories. ± marks the error that the study gave.
Structure (SMILES),assay,test system,setting,scale,measurement,result
CC(F)C(=O)NC[C@@H]1O[C@H](C(=O)N[C@@H](CCC(=O)NCCCC[C@@H]2NC(=O)[C@@H](Cc3ccc(O)cc3)NC(=O)[C@H](CC(=O)O)NC(=O)CNC(=O)[C@H](CCCNC(=N)N)NC2=O)C(=O)NCCCC[C@@H]2NC(=O)[C@@H](Cc3ccc(O)cc3)NC(=O)[C@H](CC(=O)O)NC(=O)CNC(=O)[C@H](CCCNC(=N)N)NC2=O)[C@H](O)[C@H](O)[C@H]1O (some centres unmarked) [fluorine-18 labelled],microPET imaging,"female athymic nude mouse, U-87 MG xenograft, U-87 MG tumour","intravenous, 3.7 MBq, 1 h post-injection",,tumour uptake,2.82 ± 0.39 %ID/g
Cc1nc(NC(=O)N2CCC[C@H]2C(N)=O)sc1-c1csc(C(C)(C)C)n1,,"mouse SK-OV-3 xenograft, tumour","intraperitoneal, 100 mg/kg single, 6 h",,tumour concentration,16 ± 1.3 µM
CC(F)C(=O)NC[C@@H]1O[C@H](C(=O)NCCCC[C@@H]2NC(=O)[C@@H](Cc3ccccc3)NC(=O)[C@H](CC(=O)O)NC(=O)CNC(=O)[C@H](CCCNC(=N)N)NC2=O)[C@H](O)[C@H](O)[C@H]1O (some centres unmarked) [fluorine-18 labelled],microPET imaging,"female athymic nude mouse, U-87 MG xenograft, U-87 MG tumour","intravenous, 3.7 MBq, 1 h post-injection",,tumour uptake,1.16 ± 0.06 %ID/g
CCCC[C@@H]1NC(=O)[C@@H](NC(=O)[C@H](CCC(=O)O)NC(=O)CNC(=O)CN2CCN(CC(=O)O)CCN(CC(=O)O)CCN(CC(=O)O)CC2)CCCCNC(=O)C[C@@H](C(N)=O)NC(=O)[C@H](C(C)C)NC(=O)[C@@H]2CCCN2C(=O)[C@H](CCCNC(=N)N)NC(=O)CNC(=O)[C@H](Cc2c[nH]c3ccccc23)NC(=O)[C@H](CCCNC(=N)N)NC(=O)[C@@H](Cc2ccccc2)NC(=O)[C@H](Cc2c[nH]cn2)NC(=O)[C@H](CCC(=O)O)NC1=O [gallium-67 labelled],,"C57 mouse, B16/F1 flank melanoma","2 h post-injection, together with: peptide blockade 10 µg",,tumour to skin uptake ratio,9.25
N=C(N)NCCC[C@@H]1NC(=O)[C@H](CCCCNC(=O)CC[C@H](NC(=O)CC[C@H](NC(=O)CN2CCN(CC(=O)O)CCN(CC(=O)O)CCN(CC(=O)O)CC2)C(=O)N[C@@H](CCC(=O)NCCCC[C@@H]2NC(=O)[C@@H](Cc3ccccc3)NC(=O)[C@H](CC(=O)O)NC(=O)CNC(=O)[C@H](CCCNC(=N)N)NC2=O)C(=O)NCCCC[C@@H]2NC(=O)[C@@H](Cc3ccccc3)NC(=O)[C@H](CC(=O)O)NC(=O)CNC(=O)[C@H](CCCNC(=N)N)NC2=O)C(=O)NCCCC[C@@H]2NC(=O)[C@@H](Cc3ccccc3)NC(=O)[C@H](CC(=O)O)NC(=O)CNC(=O)[C@H](CCCNC(=N)N)NC2=O)NC(=O)[C@@H](Cc2ccccc2)NC(=O)[C@H](CC(=O)O)NC(=O)CNC1=O [gallium-68 labelled],,"female nude BALB/c mouse, SK-RC-52 xenograft, tumour","intravenous, 2 h",,tumour uptake,7.11 ± 0.67 %ID/g
CC(C)C[C@H](NC(=O)C[C@H](O)[C@H](CC(C)C)NC(=O)[C@H](Cc1c[nH]cn1)NC(=O)CNC(=O)[C@@H](NC(=O)[C@H](C)NC(=O)[C@H](Cc1c[nH]c2ccccc12)NC(=O)[C@H](CCC(N)=O)NC(=O)[C@@H](Cc1ccccc1)NC(=O)CCNC(=O)CCNC(=O)CN1CCN(CC(=O)O)CCN(CC(=O)O)CCN(CC(=O)O)CC1)C(C)C)C(N)=O [lutetium-177 labelled],MIRD dosimetry,"mouse, PC-3 xenograft","intravenous, 50 MBq",,tumour absorbed dose,10 Gy
CCCC[C@H](NC(=O)CNC(=O)CNC(=O)CN1CCN(CC(=O)O)CCN(CC(=O)O)CCN(CC(=O)O)CC1)C(=O)N[C@H]1CC(=O)NCCCC[C@@H](C(N)=O)NC(=O)[C@H](Cc2c[nH]c3ccccc23)NC(=O)[C@H](CCCNC(=N)N)NC(=O)[C@@H](Cc2ccccc2)NC(=O)[C@H](Cc2c[nH]cn2)NC1=O [gallium-67 labelled],,female C57 mouse B16/F1 melanoma,"intravenous, 0.037 MBq, 4 h",,tumour to kidney ratio,2.98
CC(F)C(=O)NCCOCCOCCOCC(=O)N[C@@H](CCC(=O)NCCCC[C@@H]1NC(=O)[C@@H](Cc2ccc(O)cc2)NC(=O)[C@H](CC(=O)O)NC(=O)CNC(=O)[C@H](CCCNC(=N)N)NC1=O)C(=O)NCCCC[C@@H]1NC(=O)[C@@H](Cc2ccc(O)cc2)NC(=O)[C@H](CC(=O)O)NC(=O)CNC(=O)[C@H](CCCNC(=N)N)NC1=O (some centres unmarked) [fluorine-18 labelled],microPET imaging,"female athymic nude mouse, U-87 MG xenograft, U-87 MG tumour","intravenous, 3.7 MBq, 2 h post-injection",,tumour uptake,2.5 ± 0.17 %ID/g
CCCC[C@H](NC(=O)CNC(=O)CNC(=O)CN1CCN(CC(=O)O)CCN(CC(=O)O)CCN(CC(=O)O)CC1)C(=O)N[C@H]1CC(=O)NCCCC[C@@H](C(N)=O)NC(=O)[C@H](Cc2c[nH]c3ccccc23)NC(=O)[C@H](CCCNC(=N)N)NC(=O)[C@@H](Cc2ccccc2)NC(=O)[C@H](Cc2c[nH]cn2)NC1=O [indium-111 labelled],,"C57 mouse, B16/F1 melanoma",2 h,reference: tumour over skin,tumour to skin uptake ratio,70.6
O=C(O)CCC(NP(=O)(O)OCCC[C@@H](NC(=O)CC[C@H](NC(=O)CCCCCNC(=O)c1ccc([18F])cc1)C(=O)O)C(=O)O)C(=O)O (some centres unmarked),,"mouse, CWR22Rv1 xenograft","dose not given, 1 h",reference: tumour over blood,tumour to blood ratio,22 ± 4.17
CCCC[C@H](NC(=O)[C@H](CCC(=O)O)NC(=O)CNC(=O)CN1CCN(CC(=O)O)CCN(CC(=O)O)CCN(CC(=O)O)CC1)C(=O)N[C@H]1CC(=O)NCCCC[C@@H](C(N)=O)NC(=O)[C@H](Cc2c[nH]c3ccccc23)NC(=O)[C@H](CCCNC(=N)N)NC(=O)[C@@H](Cc2ccccc2)NC(=O)[C@H](Cc2c[nH]cn2)NC1=O [indium-111 labelled],,"C57 mouse, B16/F1 melanoma",4 h,reference: tumour over skin,tumour to skin uptake ratio,44.2
CC(C)[C@H](NC(=O)[C@@H]1CCCN1C(=O)[C@H](CCCNC(=N)N)NC(=O)[C@H](CS)NC(=O)[C@H](Cc1c[nH]c2ccccc12)NC(=O)[C@H](CCCNC(=N)N)NC(=O)[C@@H](Cc1ccccc1)NC(=O)[C@H](Cc1c[nH]cn1)NC(=O)[C@H](CCC(=O)O)NC(=O)[C@H](CS)NC(=O)[C@H](CS)NC(=O)CNC(=O)[C@@H]1CC(=O)N[C@@H](CCCNC(=N)N)C(=O)NCC(=O)N[C@@H](CC(=O)O)C(=O)N[C@H](Cc2ccc(O)cc2)C(=O)N1)C(N)=O [technetium-99m labelled],,"C57 mouse, female, B16/F1 melanoma","intravenous, 0.037 MBq, 2 h",reference: tumour over lung,tumour to tissue ratio,6.89
N=C(N)NCCC[C@@H]1NC(=O)[C@H](CCCCNC(=O)CC[C@H](NC(=O)[C@H]2O[C@@H](CNC(=O)c3ccc(F)cc3)[C@H](O)[C@@H](O)[C@H]2O)C(=O)NCCCC[C@@H]2NC(=O)[C@@H](Cc3ccc(O)cc3)NC(=O)[C@H](CC(=O)O)NC(=O)CNC(=O)[C@H](CCCNC(=N)N)NC2=O)NC(=O)[C@@H](Cc2ccc(O)cc2)NC(=O)[C@H](CC(=O)O)NC(=O)CNC1=O [fluorine-18 labelled],microPET imaging,"female athymic nude mouse, U-87 MG xenograft, U-87 MG tumour","intravenous, 3.7 MBq, 1 h post-injection",,tumour uptake,2.32 ± 0.28 %ID/g
CC[C@H](C)[C@H](NC(=O)[C@H](C)NC(=O)[C@H](CC(C)C)NC(=O)[C@H](Cc1ccc(O)c(I)c1)NC(C)=O)C(=O)NCCCCCC(=O)N1CCC[C@H]1C(=O)N[C@@H](C)C(=O)N[C@@H](CC(=O)O)C(=O)N[C@@H](CCC(=O)O)C(=O)N[C@H](C(=O)N[C@@H](CC(=O)O)C(=O)NCC(=O)N[C@@H](CCCNC(=N)N)C(=O)N[C@@H](CCCNC(=N)N)C(=O)N[C@@H](CCCNC(=N)N)C(=O)N[C@@H](CCCN)C(=O)N[C@@H](CCCNC(=N)N)C(=O)N[C@@H](CCCNC(=N)N)C(=O)N[C@@H](CCCCN)C(=O)N[C@@H](CCCCN)C(=O)N[C@@H](CCCNC(=N)N)C(=O)N[C@@H](CCCCNC(=O)CN1CCN(CC(=O)O)CCN(CC(=O)O)CCN(CC(=O)O)CC1)C(N)=O)C(C)C [iodine-125 labelled],,"female BALB/c mouse, orthotopic 4T1 tumour, tumour over muscle","intravenous, 0.185 MBq, 1 h",,tumour to tissue ratio,2.2 ± 0.1
CC(F)C(=O)NC[C@@H]1O[C@H](C(=O)NCCCC[C@@H]2NC(=O)[C@@H](Cc3ccc(O)cc3)NC(=O)[C@H](CC(=O)O)NC(=O)CNC(=O)[C@H](CCCNC(=N)N)NC2=O)[C@H](O)[C@H](O)[C@H]1O (some centres unmarked) [fluorine-18 labelled],microPET imaging,"female athymic nude mouse, U-87 MG xenograft, U-87 MG tumour","intravenous, 3.7 MBq, 2 h post-injection",,tumour uptake,1.03 ± 0.12 %ID/g
CN1C(=O)[C@@H](Cc2ccc(O)c(I)c2)NC(=O)CNC(=O)[C@H](Cc2ccc3ccccc3c2)NC(=O)[C@H](CCCNC(=N)N)NC(=O)[C@H]1CCCNC(=O)c1ccc(CNC(=O)CN2CCN(CC(=O)O)CCN(CC(=O)O)CC2)cc1 [fluorine-18 labelled],biodistribution,"SCID mouse, Daudi lymphoma xenograft",1 h post-injection,,tumour to gut ratio,16.5 ± 6.5
CCCC[C@H](NC(=O)CN1CCC(NC(=O)CN2CCN(CC(=O)O)CCN(CC(=O)O)CCN(CC(=O)O)CC2)CC1)C(=O)N[C@H]1CC(=O)NCCCC[C@@H](C(N)=O)NC(=O)[C@H](Cc2c[nH]c3ccccc23)NC(=O)[C@H](CCCNC(=N)N)NC(=O)[C@@H](Cc2ccccc2)NC(=O)[C@H](Cc2c[nH]cn2)NC1=O [gallium-68 labelled],biodistribution,C57BL/6J mouse male tumour-bearing,"1 h post injection, unblocked",reference: tumour over bone,tumour to bone ratio,35.4 ± 15.3
